Measured values gathered from unrelated publications.
Every numbered part comes from another study and shows a few of its results, in no order.

Sample 1 — method: competition protein-binding microarray; molecule type: double-stranded DNA, one strand shown; medium: in vitro; concentration: 2 µM; with: Pho4 competitor, 0.05 µM; reading: higher = stronger binding
Target: Centromere-binding protein 1, full length, His-tagged (CBF1, Saccharomyces cerevisiae, UniProt P17106, residues 1-351)
UniProt P17106, sequence (whole entry, looked up): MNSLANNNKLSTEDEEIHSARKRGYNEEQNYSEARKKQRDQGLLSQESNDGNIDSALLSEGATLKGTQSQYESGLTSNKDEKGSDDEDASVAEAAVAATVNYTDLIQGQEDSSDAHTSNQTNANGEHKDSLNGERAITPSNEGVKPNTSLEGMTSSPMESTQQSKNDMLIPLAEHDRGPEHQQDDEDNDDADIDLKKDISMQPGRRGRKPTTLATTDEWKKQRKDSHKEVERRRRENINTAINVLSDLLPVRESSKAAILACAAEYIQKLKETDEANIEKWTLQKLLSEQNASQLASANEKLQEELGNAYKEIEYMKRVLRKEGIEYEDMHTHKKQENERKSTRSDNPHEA
Notes: whole 60-bp probe, lowest competitor level
For `AGAAGGATGAATTGGAACGTGTTGGCAAGTCTAACCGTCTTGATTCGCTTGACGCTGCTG`, the fluorescence intensity was 87 a.u.
For `AAGAAGGGTATTTGTCACGTCAAGCCAGTGAGATGTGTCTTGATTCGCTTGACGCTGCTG`, the fluorescence intensity was 81.5 a.u.
With `TAAGCAAATGAACCGCACATGTAGGCCGCAAATCTTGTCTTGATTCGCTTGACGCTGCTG` the fluorescence intensity was 96 a.u.
`GTTGAGGTGAACCAGCTCGTGGAGTAGACCGTTGAGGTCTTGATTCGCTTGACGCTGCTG` has a fluorescence intensity of 55.2 a.u.
`TGCGCAACAACTTGTGAAGTGGGTGTATGTCTAGAAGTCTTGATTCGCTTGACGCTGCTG` has a fluorescence intensity of 69.5 a.u.
`GCACTTGCTGCCTGTCACCTGGTACAAAGCCATATGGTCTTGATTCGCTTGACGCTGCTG` has a fluorescence intensity of 269 a.u.
The fluorescence intensity of `CTTTCCCGATCTTGCTCGGTGGGTGTAGCACATTTGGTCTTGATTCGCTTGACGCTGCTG` is reported as 61.7 a.u.
`ATATCCCATCAACTACACGTGCCAGACCAGTTAAAGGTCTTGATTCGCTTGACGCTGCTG` gave a fluorescence intensity of 1170 a.u.
`AGATCCTGGACATGGAACGTGAACCTAGGCTTGATGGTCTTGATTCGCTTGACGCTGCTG` has a fluorescence intensity of 66.4 a.u.
`CGTCCTAGTGATTGTCCCGTGGGTGCCATGAGGAAGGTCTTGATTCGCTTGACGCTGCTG` has a fluorescence intensity of 126 a.u.
The fluorescence intensity of `ATGAATGTTGCGAGTCACGTCTTTTGTCTCGATACCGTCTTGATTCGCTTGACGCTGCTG` is reported as 226 a.u.
For `TGAAAAGATGAATCGCACGTGAACCATATTATAATCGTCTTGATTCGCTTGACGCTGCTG`, the fluorescence intensity was 1590 a.u.

Sample 2 — method: aptamer microarray, sandwich; molecule type: DNA with 2'F-ANA; medium: in vitro; concentration: 200 nM; with: Cy3 exosite-II aptamer, 400 nM; reading: higher = stronger binding; strand: GGTTGGTGTGGTTGG
Target: Prothrombin, mature alpha-thrombin (F2, Homo sapiens, UniProt P00734)
Notes: whole 15-mer aptamer, many near background
For `2'F-ANA at 2 4 5 6 9 11 13 14 15`, “mean fluorescence intensity” read 52.8 a.u.
Under “mean fluorescence intensity”, `2'F-ANA at 1 5 6 7 12 15` is recorded as 103 a.u.
`2'F-ANA at 2 5 7 10 12 15`: “mean fluorescence intensity” 48.7 a.u.
For `2'F-ANA at 1 3 4 5 6 7 8 10 12 13`, “mean fluorescence intensity” read 63.5 a.u.
`2'F-ANA at 1 2 5 7 9 14 15`: “mean fluorescence intensity” 48.3 a.u.
For `2'F-ANA at 2 5 7 8 9 12 13 14`, “mean fluorescence intensity” read 46.1 a.u.
`2'F-ANA at 1 3 5 7 8 9 12 14 15`: “mean fluorescence intensity” 50.4 a.u.
Under “mean fluorescence intensity”, `2'F-ANA at 1 3 8 9 10 13 15` is recorded as 130 a.u.
`2'F-ANA at 2 3 4 6 8 9 14 15`: “mean fluorescence intensity” 224 a.u.
`2'F-ANA at 1 4 7 8 9 13 14 15` — result for “mean fluorescence intensity”: 49.5 a.u.

Sample 3 — method: RNA Bind-n-Seq; molecule type: RNA; medium: in vitro; concentration: 365 nM; relative to: no-protein control; reading: higher = stronger binding
Target: RNA binding protein fox-1 homolog 2, RRM domain, GST-SBP tag (RBFOX2, Homo sapiens, UniProt O43251-10, residues 100-194)
Notes: natural RNA segment, single round, ends assumed
Construct (chain): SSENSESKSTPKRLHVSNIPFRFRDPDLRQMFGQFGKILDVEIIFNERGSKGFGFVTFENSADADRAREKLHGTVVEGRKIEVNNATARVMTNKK
`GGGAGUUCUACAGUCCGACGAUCUUUCUUGUAAAUAAGCCUGCCUUCCUACCUGGAAUUUGUGUGUGUGUGACUAAUACAUGUUCUACGAGUUAACUACUUUGGCAGUUUUAAUCAUUUCUUCUUUGUUUUGUUGGAAUUCUCGGGUGCCAA`: “RBNS enrichment (R)” 0.658.
`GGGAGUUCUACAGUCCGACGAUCUAUUAUGCAAGAAAAUCCCAAAAAUAUGUUUUAAGGGAGACUACACAGACCUUGUGAUUUGGUCUGAGCUAGUUGCUGAGUUGACUGGAGCCUUAUUUGAAUGGAUCUUUUGGAAUUCUCGGGUGCCAA` — result for “RBNS enrichment (R)”: 0.753.
`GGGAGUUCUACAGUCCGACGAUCGCAGGUUCUCUGCCCUCCCUAGGGGUUGGGGAAGGACCCACCCCGGUCAGCACAGUGCCUUUUCCUCUCCUGCUCUGAGCCAGGGUGGGGCAUUCCCUCUAGAUUCAGGUUGGAAUUCUCGGGUGCCAA`: “RBNS enrichment (R)” 0.454.
`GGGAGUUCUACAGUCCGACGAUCAACACAUUUGCAAGGUGAUUGACACCAUCUUUGCCUAAAUGCAGUGAGUGUACAGGAAGCUCGUUCUCGAGACAGUACAUACAAAUCCGGAGGGGGUCACAUAGACUAGGUGGAAUUCUCGGGUGCCAA`: “RBNS enrichment (R)” 0.232.
For `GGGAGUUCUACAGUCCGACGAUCGGGAUCUUGCUCACAAGAAUCACUUUUAAGAUCUUUUAGGGCUGUUAAUUUUAUUUUUCUCAGUGUUCUGGACACUGUAGACCUGUGCAGUACUCCCACAGGCCUGACUAUGGAAUUCUCGGGUGCCAA`, “RBNS enrichment (R)” read 0.357.
`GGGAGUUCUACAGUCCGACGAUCCUCAGGAGCCUCAACUGUUUAUUUUGUAGCUGAUGGCACAGUUGAGCCCAAAGCAGGUUCUAAUAAGAAUGCACCAAAGCCUUCAGCCUUAGCAAAGACAACUGCUCCUGUGGAAUUCUCGGGUGCCAA`: “RBNS enrichment (R)” 1.53.
For `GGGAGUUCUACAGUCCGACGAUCUACCACCUCACCUUGUUGGUACCUCCCUCCCUGGAUCUCUGAGCCAGCAGCCAGGAGGACCUGACCCAGCAGUUCUUUACUGGCCCCUUUGUAGGGCCUUGCUGCCAGGGUGGAAUUCUCGGGUGCCAA`, “RBNS enrichment (R)” read 0.368.
Under “RBNS enrichment (R)”, `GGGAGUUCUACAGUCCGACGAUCUACACUUAUCAAAGCUAUUUUCUUAUGAAAACGUCCCUCUCUCCAUACCAUCAGUUUCUCAGUUCCAGAAGUUAUACCUUUAUUUUGAGCUGUGUAUAGGUAGAAUAAAAUGGAAUUCUCGGGUGCCAA` is recorded as 0.479.
`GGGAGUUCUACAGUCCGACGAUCGUCUCUCUCAUUCUCUCUUCACCUGCCAUAGCAAAGAAACAUCCCAGAAUCGACCCUUCUCCCAUUGAUCCAUGUCUCCCGUGUCACCAUGGGCAUGGCAUGUGAAGCAAUGGAAUUCUCGGGUGCCAA` — result for “RBNS enrichment (R)”: 0.519.

Single results of other studies
The fold induction of `PhoQ, residues 284 288 289 292 302 303 SSTLLI` is reported as 2.05 (PhoP, residues 12 14 15 18 19 LQHIR (Escherichia coli, UniProt P23836); Sort-seq, measured: YFP reporter; E. coli; PhoQ-PhoP variant library, with: 10 µM Mg2+; relative to: high Mg2+ state, higher = stronger signaling).

Repeated from above (sample 3):
`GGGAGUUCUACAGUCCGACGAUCUAUUAUGCAAGAAAAUCCCAAAAAUAUGUUUUAAGGGAGACUACACAGACCUUGUGAUUUGGUCUGAGCUAGUUGCUGAGUUGACUGGAGCCUUAUUUGAAUGGAUCUUUUGGAAUUCUCGGGUGCCAA` — result for “RBNS enrichment (R)”: 0.753.
For `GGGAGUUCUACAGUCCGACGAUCGGGAUCUUGCUCACAAGAAUCACUUUUAAGAUCUUUUAGGGCUGUUAAUUUUAUUUUUCUCAGUGUUCUGGACACUGUAGACCUGUGCAGUACUCCCACAGGCCUGACUAUGGAAUUCUCGGGUGCCAA`, “RBNS enrichment (R)” read 0.357.
